Measurements pooled from the literature.
Each numbered part is a random draw from the data of one study; scales do not carry over between parts.
UniProt Q9P1W9, sequence (whole entry, looked up): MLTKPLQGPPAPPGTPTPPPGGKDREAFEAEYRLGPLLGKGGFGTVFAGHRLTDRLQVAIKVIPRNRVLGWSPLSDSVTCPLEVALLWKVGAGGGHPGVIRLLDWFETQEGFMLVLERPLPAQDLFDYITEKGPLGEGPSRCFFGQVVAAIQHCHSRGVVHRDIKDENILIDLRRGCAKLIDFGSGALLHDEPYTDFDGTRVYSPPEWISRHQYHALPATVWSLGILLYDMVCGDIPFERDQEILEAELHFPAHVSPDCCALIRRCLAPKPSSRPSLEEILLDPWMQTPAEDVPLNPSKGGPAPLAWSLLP
UniProt P23443, sequence (whole entry, looked up): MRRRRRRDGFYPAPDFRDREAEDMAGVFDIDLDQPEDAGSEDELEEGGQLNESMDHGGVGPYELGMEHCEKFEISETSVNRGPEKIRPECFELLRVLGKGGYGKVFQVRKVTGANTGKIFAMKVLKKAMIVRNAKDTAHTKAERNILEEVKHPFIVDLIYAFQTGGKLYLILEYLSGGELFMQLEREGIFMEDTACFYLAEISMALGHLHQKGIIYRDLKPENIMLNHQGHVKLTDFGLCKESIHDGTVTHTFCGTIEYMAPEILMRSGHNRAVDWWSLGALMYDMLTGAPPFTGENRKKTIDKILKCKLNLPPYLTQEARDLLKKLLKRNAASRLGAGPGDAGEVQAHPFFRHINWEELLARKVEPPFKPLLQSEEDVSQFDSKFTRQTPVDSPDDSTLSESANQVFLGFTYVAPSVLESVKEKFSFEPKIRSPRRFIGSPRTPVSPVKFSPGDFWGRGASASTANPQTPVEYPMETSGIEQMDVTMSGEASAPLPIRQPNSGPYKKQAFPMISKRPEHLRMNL
UniProt Q9UQB9, sequence (whole entry, looked up): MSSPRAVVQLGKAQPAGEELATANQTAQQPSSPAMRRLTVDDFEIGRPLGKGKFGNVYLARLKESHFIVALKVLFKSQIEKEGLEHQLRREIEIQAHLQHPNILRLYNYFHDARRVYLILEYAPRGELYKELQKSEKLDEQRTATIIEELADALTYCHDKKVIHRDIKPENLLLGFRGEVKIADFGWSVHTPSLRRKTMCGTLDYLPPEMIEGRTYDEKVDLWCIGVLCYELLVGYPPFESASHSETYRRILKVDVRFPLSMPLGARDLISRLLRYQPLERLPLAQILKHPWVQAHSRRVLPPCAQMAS
UniProt Q15375, sequence (whole entry, looked up): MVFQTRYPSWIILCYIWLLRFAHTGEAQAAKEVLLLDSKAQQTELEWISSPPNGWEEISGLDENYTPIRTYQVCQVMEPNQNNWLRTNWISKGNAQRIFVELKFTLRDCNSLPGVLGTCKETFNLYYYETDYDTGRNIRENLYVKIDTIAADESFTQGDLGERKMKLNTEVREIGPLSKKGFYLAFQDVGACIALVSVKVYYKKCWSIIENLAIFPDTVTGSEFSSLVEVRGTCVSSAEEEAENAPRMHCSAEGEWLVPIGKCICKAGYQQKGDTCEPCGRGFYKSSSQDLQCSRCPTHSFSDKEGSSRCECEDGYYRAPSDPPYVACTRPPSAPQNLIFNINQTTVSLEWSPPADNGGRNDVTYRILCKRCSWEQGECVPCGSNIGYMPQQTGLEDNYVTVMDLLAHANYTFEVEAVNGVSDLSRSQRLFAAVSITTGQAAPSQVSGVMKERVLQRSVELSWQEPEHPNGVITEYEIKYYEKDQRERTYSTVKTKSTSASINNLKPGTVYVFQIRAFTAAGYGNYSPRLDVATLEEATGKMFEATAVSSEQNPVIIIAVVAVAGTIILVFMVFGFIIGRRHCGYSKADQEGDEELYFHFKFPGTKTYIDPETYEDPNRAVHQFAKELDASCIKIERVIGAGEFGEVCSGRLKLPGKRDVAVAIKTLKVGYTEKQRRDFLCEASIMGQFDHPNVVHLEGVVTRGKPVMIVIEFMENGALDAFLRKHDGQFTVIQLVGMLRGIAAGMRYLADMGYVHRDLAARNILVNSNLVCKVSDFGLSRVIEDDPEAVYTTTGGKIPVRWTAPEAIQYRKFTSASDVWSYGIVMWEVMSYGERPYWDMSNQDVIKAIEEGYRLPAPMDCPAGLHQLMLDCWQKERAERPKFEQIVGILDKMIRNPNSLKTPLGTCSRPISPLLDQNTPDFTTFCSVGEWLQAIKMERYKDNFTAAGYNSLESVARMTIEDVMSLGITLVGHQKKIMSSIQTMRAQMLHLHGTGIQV
UniProt P41240, sequence (whole entry, looked up): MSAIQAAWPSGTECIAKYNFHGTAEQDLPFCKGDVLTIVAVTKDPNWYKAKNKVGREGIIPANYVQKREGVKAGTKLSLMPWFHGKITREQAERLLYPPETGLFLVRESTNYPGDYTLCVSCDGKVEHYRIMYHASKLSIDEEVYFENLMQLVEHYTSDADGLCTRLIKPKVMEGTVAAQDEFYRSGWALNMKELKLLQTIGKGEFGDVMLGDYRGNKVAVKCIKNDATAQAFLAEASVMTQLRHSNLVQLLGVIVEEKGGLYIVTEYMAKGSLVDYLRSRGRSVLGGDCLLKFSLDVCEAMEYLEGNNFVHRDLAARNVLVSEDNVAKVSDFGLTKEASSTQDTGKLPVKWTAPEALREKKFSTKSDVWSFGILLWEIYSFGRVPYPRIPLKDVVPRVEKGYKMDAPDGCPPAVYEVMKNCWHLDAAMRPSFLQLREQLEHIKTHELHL
UniProt Q02156, sequence (whole entry, looked up): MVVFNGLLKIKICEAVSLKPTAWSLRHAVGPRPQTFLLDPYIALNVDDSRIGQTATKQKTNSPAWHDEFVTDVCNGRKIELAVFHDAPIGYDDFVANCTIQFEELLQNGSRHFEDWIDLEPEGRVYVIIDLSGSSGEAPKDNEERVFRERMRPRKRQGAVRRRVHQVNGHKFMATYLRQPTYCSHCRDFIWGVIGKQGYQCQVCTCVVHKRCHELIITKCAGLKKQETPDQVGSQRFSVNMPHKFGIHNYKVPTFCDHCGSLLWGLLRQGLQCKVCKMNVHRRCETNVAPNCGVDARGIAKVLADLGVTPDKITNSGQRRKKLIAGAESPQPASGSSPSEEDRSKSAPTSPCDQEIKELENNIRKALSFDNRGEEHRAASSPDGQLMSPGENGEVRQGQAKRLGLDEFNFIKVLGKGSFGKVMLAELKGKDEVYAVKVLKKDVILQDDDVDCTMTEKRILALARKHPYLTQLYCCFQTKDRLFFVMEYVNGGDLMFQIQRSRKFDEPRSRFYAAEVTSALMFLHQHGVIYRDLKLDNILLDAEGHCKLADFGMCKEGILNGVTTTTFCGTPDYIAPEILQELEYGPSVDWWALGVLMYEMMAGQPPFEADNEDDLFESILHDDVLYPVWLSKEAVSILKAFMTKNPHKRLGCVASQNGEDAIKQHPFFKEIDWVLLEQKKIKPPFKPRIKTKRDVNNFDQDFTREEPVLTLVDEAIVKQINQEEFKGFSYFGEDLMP
UniProt P43250, sequence (whole entry, looked up): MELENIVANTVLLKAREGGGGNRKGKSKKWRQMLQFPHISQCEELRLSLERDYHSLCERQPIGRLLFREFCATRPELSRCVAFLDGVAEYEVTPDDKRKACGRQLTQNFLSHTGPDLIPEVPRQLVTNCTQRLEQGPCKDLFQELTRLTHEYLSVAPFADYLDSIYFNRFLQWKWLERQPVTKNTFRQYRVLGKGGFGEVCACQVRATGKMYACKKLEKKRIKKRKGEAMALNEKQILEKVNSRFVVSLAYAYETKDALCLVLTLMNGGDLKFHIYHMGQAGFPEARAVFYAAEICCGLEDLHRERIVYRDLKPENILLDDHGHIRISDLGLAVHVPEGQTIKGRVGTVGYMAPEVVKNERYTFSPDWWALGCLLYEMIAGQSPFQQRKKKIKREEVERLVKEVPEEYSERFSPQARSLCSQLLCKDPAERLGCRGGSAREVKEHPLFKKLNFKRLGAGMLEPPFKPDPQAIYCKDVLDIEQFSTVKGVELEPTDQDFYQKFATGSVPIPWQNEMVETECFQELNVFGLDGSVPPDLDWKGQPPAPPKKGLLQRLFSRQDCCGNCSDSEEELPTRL

Study 1
SMILES: COc1cc(C(=O)N2CCC(N3CCN(C)CC3)CC2)ccc1Nc1ncc2c(n1)N(C)c1ccccc1C(=O)N2C
Technique: KINOMEscan
Concentration: 10 µM
Baseline: DMSO control
Reading: lower = stronger binding
target	binding [%]
PDGFRA	100
ERBB2	100
HPK1	100
STK33	10
TLK2	99
DMPK2	100
AKT1	79

Study 2
Target: 5-hydroxytryptamine receptor 1B (HTR1B, Homo sapiens, UniProt P28222)
UniProt P28222, sequence (whole entry, looked up): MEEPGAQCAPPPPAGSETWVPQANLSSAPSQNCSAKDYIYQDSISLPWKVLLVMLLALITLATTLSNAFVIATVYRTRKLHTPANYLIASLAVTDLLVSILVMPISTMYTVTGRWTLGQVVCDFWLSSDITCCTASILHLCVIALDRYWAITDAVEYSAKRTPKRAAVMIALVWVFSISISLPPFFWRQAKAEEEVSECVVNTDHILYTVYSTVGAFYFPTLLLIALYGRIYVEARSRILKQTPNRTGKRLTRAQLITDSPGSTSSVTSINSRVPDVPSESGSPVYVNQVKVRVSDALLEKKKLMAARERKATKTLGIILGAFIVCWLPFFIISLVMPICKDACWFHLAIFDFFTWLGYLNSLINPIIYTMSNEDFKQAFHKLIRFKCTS
Observed: binding
Technique: radioligand binding
Concentration: 10 µM
Compound	inhibition [%]
N#CC1(c2ccccn2)CCN(Cc2cc(C(=O)N3CCCC3)c(=O)n3ccccc23)CC1	13
CC[C@H](CC(=O)O)n1c(=O)c2ncccc2n(Cc2cn(C)c3cc(C)cc(C)c23)c1=O	5.01
O=C1c2ccc(Nc3ccc(F)cc3F)cc2CCc2ccc(OC[C@H](O)CO)cc21	15.2
COc1cc(N[C@@H]2CCCC[C@]2(O)C(F)(F)F)ccc1F	-10.4
Cc1cc(C)c(-n2ccn3nc(-c4cccnc4)cc23)cc1NC(=O)c1cc(C#N)cc(S(F)(F)(F)(F)F)c1	14.4
CNC(=O)Nc1ccc2c(c1)CC[C@]21OC(=O)N(CC(=O)N(Cc2ccc(F)cc2)[C@@H](C)C(F)(F)F)C1=O	9.82
CC(=O)Nc1ncc(CN2CCC[C@H](Cc3cc(C)nc(C)c3)C2)s1	-2.53
O=C(Nc1ccc(Oc2ccc(F)cc2)cc1)N1CCc2ncccc2[C@H]1c1ccc(F)cc1	18.8
Cc1noc([C@H]2C[C@@H](c3ccc(C(F)(F)F)cc3)CN(C(=O)N3CCS(=O)(=O)C3)C2)n1	4.16
COCCc1ccc(-c2c(C)nc3c(N4CCOCC4)ccnn23)cn1	-0.76
Nc1c(C(=O)NCc2ccc(C(=O)NCCCC3CCCCC3)cc2)cnn1-c1ccccc1	10.4
O=C(NCCCC1CCCCC1)c1ccc(CNC(=O)c2cnn(-c3ccccc3)c2C(F)(F)F)cc1	9.89
O=C(Nc1ccc(-n2nc(-c3cccnc3)cc2C(F)(F)F)cn1)c1ccc(-c2ccccc2)c(F)c1	-0.85
CCC(F)(F)c1cc(N2CCC(S(C)(=O)=O)CC2)nc2sc(C(N)=O)c(N)c12	3.43
CN1CCN(C(=O)C(C)(C)c2ccc(C(=O)Nc3cn4cc(-c5cc(C(C)(C)C)cc(C(C)(C)C)c5)ccc4n3)cc2)CC1	66.9
CN1CCN(c2ccnc(NCCc3ccccc3)n2)CC1	45.9
O=C(Nc1cnc(Oc2ccc(F)cc2)nc1)N1CCc2ncccc2[C@@H]1c1ccc(F)cc1	36.4
COc1cc(C(=O)O)ncc1C#Cc1ccccc1NS(=O)(=O)c1cccc2c(N(C)C)ccnc12	10.6
CC(=O)Nc1c(F)cc(C(=O)N[C@H]2CC[C@H](O)CC2)cc1O[C@@H](C)c1ccccc1	11.6

Study 3
SMILES: CC(=O)O/N=C1/C(c2c(O)[nH]c3cc(Br)ccc23)=Nc2ccccc21
Observed: enzyme activity
Mode: inhibitor
Concentration: 0.5 µM
Baseline: control
target	remaining activity [%]
Myosin light chain kinase, smooth muscle (MYLK, Homo sapiens, UniProt Q15746)	74.2
SRSF protein kinase 3 (SRPK3, Homo sapiens, UniProt Q9UPE1)	93.9
G protein-coupled receptor kinase 6 (GRK6, Homo sapiens, UniProt P43250)	88.5
Serine/threonine-protein kinase PAK 2 (PAK2, Homo sapiens, UniProt Q13177)	103
Tyrosine-protein kinase CSK (CSK, Homo sapiens, UniProt P41240)	75.5
Ephrin type-B receptor 2 (EPHB2, Homo sapiens, UniProt P29323)	81.4
Serine/threonine-protein kinase Sgk1 (SGK1, Homo sapiens, UniProt O00141)	81.8
Protein kinase C gamma type (PRKCG, Homo sapiens, UniProt P05129)	103
Beta-adrenergic receptor kinase 1 (GRK2, Homo sapiens, UniProt P25098)	108
Macrophage colony-stimulating factor 1 receptor (CSF1R, Homo sapiens, UniProt P07333)	84
Protein kinase C epsilon type (PRKCE, Homo sapiens, UniProt Q02156)	86.2
Fibroblast growth factor receptor 4 (FGFR4, Homo sapiens, UniProt P22455)	82.6
Ribosomal protein S6 kinase beta-1 (RPS6KB1, Homo sapiens, UniProt P23443)	95.4
Serine/threonine-protein kinase pim-2 (PIM2, Homo sapiens, UniProt Q9P1W9)	93.2
Ribosomal protein S6 kinase alpha-1 (RPS6KA1, Homo sapiens, UniProt Q15418)	69
Aurora kinase C (AURKC, Homo sapiens, UniProt Q9UQB9)	86
Receptor-type tyrosine-protein kinase FLT3 (FLT3, Homo sapiens, UniProt P36888)	21.6
Glycogen synthase kinase-3 alpha (GSK3A, Homo sapiens, UniProt P49840)	6.49
NUAK family SNF1-like kinase 1 (NUAK1, Homo sapiens, UniProt O60285)	49.4
Cytoplasmic tyrosine-protein kinase BMX (BMX, Homo sapiens, UniProt P51813)	67.2
Ephrin type-A receptor 7 (EPHA7, Homo sapiens, UniProt Q15375)	97.9

Other studies, line by line
Target: Eukaryotic initiation factor 4A-III (Homo sapiens, UniProt P38919)
UniProt P38919, sequence (whole entry, looked up): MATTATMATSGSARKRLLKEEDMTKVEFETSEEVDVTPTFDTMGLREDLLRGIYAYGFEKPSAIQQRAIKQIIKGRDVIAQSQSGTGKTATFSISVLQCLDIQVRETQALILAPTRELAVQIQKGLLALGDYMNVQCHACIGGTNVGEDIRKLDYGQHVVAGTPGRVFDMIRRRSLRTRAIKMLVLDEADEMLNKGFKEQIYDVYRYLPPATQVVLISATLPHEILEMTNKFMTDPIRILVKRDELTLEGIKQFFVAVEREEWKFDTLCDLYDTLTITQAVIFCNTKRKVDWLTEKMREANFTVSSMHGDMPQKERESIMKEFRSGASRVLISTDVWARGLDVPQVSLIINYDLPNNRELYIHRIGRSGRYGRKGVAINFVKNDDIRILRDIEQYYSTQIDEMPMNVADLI
Observed: RNA clamping
Technique: fluorescence polarization
Concentration: concentration not given
Notes: mean of two replicates
Together with: FAM-labelled poly r(AG)8 RNA
SMILES	fluorescence polarization change
COc1cc(OC)c2c(c1)O[C@@]1(c3ccc(Br)cc3)[C@H](c3ccccc3)C3=C(N[C@@H]4CCCN4C3=O)[C@@]21O	37.8 mP
COc1cc(F)cc2c1[C@]1(O)[C@H](O)[C@@H](C#N)[C@H](c3ccccc3)[C@]1(c1ccc(Br)cc1)O2	8.3 mP
